Measurements gathered from unrelated publications.
Every numbered part comes from another study and shows a few of its results, in no order.

Set 1
Target: Centromere-binding protein 1, full length, N-terminal tag (CBF1, Saccharomyces cerevisiae, UniProt P17106, residues 1-351)
UniProt P17106, sequence (whole entry, looked up): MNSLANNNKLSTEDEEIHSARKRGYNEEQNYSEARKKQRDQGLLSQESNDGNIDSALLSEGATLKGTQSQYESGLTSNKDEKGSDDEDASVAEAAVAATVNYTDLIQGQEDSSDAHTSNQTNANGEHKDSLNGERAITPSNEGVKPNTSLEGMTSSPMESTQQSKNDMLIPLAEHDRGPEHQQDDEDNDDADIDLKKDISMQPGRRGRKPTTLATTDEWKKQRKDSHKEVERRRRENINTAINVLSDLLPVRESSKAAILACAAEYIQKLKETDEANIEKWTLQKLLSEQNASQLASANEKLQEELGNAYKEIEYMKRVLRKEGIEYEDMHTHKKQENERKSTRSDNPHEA
Method: protein-binding microarray
Form: double-stranded DNA, one strand shown
Medium: in vitro
Concentration: 0.8 µM
Notes: whole 60-bp probe, no competitor
Reading: higher = stronger binding
Sequence | fluorescence intensity [a.u.]
GAAGCCGAGAGGAAGCGCGTGATGAAAGCACGATAGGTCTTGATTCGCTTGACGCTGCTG | 1100
GAAACGTTTTATCGTGGTGTGTTCAGTCTCCTTTAGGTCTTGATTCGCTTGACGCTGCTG | 538
GAACATTTCGATTTGAGCGTGTTCTAGCTGTTCTAGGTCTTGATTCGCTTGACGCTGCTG | 497
GAATAAAAAATGCATCACGACTCGTTTAGACAATAGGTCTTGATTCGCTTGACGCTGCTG | 643
CTACAAAGCTGTCTCCACGTGGAAAGTTTATTTTTCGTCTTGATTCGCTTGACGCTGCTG | 2660
GAATGATAACGTTCTCACCAGATTATGAAATCATAGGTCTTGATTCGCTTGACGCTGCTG | 517
GAAAATAATCATATGCACGATGCACACTCTATATAGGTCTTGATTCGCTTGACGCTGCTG | 637
GAATCTCTAAAAGGGAGCGTGATAGATAAAGCATAGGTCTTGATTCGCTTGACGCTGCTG | 977
CTAGCCGTTTGCAGGCTCATGATGATAAATCTCTTCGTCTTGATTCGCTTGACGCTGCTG | 579
CTAATTTAGGTAGACGTGGTGATCAATTGAAGTTTCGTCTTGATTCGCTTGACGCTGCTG | 547
GAATTTTGTGATGGCCACGAGGGTCCTTTCACTTAGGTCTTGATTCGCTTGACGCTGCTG | 550
CTAAACAGTGAAACCGTGGTCAGCAGCGTTCAATTCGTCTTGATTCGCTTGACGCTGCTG | 592
GAACTACTATTTAAGCACGTGCATAAATTGGGTTAGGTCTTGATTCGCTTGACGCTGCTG | 16300
CTATAATTGAACATTCTCGTGCGTTTAAACGTCTTCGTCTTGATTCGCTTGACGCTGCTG | 645

Set 2
Target: Ras GTPase-activating protein-binding protein 1, full length (G3BP1, Homo sapiens, UniProt Q13283)
UniProt Q13283, sequence (whole entry, looked up): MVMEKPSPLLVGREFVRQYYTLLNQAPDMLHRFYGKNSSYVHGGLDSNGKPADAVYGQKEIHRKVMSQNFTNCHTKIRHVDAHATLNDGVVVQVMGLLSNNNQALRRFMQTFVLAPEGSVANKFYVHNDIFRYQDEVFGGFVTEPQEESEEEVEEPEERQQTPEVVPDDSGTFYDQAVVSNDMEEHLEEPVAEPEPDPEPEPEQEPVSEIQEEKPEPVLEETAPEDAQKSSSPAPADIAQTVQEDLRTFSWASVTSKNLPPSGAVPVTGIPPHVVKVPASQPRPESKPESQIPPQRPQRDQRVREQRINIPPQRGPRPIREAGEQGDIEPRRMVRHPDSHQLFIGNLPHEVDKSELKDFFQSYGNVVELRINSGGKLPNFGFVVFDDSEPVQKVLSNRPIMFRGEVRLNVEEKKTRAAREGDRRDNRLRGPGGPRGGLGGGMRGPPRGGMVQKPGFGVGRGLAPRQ
Method: RNA Bind-n-Seq
Form: RNA
Medium: in vitro
Concentration: 200 nM
Notes: whole 134-nt RNA, ends assumed
Together with: 150 mM KCl
Baseline: input library
Reading: higher = stronger binding
Sequence | log2 enrichment
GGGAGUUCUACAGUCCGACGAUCCAAGUCCUGUGCUACACAUCGUAUGUACCGAAUCGGAAAGGAAAAAAAGGUUUGGAAAGUAUUAUGUUACGCCGUUCGGAUCUGCACUUCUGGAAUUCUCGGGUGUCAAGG | -1.29
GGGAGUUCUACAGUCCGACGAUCGUCCUGUGCUACACAUCGUAUGUACCGAAUCGGGGAGGGGAAAAAGGGGUUUUUGGGGAAAGUAUUAUGUUACGCCGUUCGGAUCUGCACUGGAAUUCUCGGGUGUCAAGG | 0.579
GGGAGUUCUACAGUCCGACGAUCUCAAGUCCUGUGCUACACAUCGUAUGUACCGAAUCGGCCCGGCCCGGCCCGGGGAAAGUAUUAUGUUACGCCGUUCGGAUCUGCACUUCCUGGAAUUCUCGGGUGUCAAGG | -0.561
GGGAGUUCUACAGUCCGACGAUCUCCUCAAGUCCUGUGCUACACAUCGUAUGUACCGAAUCGGGAGGAGGGAGGGAAAGUAUUAUGUUACGCCGUUCGGAUCUGCACUUCCAGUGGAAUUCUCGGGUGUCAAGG | 1.44
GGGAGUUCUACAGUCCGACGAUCCUCAAGUCCUGUGCUACACAUCGUAUGUACCGAAUCGGGAAGGGAAGGAAGGGGAAAGUAUUAUGUUACGCCGUUCGGAUCUGCACUUCCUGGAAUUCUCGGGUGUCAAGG | 0.949
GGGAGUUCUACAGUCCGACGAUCACCAUGCAGGUGGGCAUCUUUGGGAAGUGGGGCAAGGGGGGGAUAGGGAGGGGGGUAACACAAAGGGAACAGGUGGUCCCAGGUCGUUUCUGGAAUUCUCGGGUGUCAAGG | 1.23
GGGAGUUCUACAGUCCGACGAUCUGUGUGACUUCCUUGGAGAGAAGAUUGCAUCUGUUUUGGGUAUCAGCACCCCAAAGUACCAAUAUGCCAUUGAUGAAUAUUAUCGGAUGAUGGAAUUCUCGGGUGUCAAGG | 0.65
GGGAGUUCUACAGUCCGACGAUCCCUGUGCUACACAUCGUAUGUACCGAAUCGGGUUUUUUUGGGUUUUUUUGGGAAAAAGGGAAAGUAUUAUGUUACGCCGUUCGGAUCUGCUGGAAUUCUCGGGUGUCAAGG | -1.07

Set 3
Target: Sal-like protein 4, full length isoform B (SALL4, Homo sapiens, UniProt Q9UJQ4-2, residues 1-616)
Method: universal PBM
Form: double-stranded DNA, one strand shown
Medium: in vitro
Concentration: not given
Notes: 8-mer, flanks averaged, mean of replicates
Reading: higher = stronger binding
Sequence | E-score
CAGAGGCG | -0.177
CACTGAAC | 0.0386
ACGCGCAA | -0.0445
CTATGGGA | 0.024
GACCATGC | -0.0154
CGGGCACA | -0.327
CAGTAGAC | 0.0103
ACTTGGCG | -0.144
CCCATACG | -0.0822
CCTTATTA | 0.342
CGTCTGGC | -0.201
AAAACATT | 0.321
ATCTCCTG | -0.0282
GGAAAAAC | 0.064

Mixed results
Substance | target | assay | test system | conditions | scale | measurement | value
PhoQ, residues 284 288 289 292 302 303 TYGVAM | PhoP, residues 12 14 15 18 19 HEGLL (Escherichia coli, UniProt P23836) | Sort-seq, refers to: YFP reporter | E. coli | PhoQ-PhoP variant library, together with: 10 µM Mg2+ | baseline: high Mg2+ state, higher = stronger signaling | fold induction | 3.07

For quick reference, copied from above (set 1):
Sequence | fluorescence intensity [a.u.]
CTAGCCGTTTGCAGGCTCATGATGATAAATCTCTTCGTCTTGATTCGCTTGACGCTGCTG | 579
CTATAATTGAACATTCTCGTGCGTTTAAACGTCTTCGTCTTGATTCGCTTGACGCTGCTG | 645
GAAAATAATCATATGCACGATGCACACTCTATATAGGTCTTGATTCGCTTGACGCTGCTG | 637
GAACTACTATTTAAGCACGTGCATAAATTGGGTTAGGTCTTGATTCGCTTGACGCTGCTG | 16300
CTAAACAGTGAAACCGTGGTCAGCAGCGTTCAATTCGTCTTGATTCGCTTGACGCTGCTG | 592
GAATAAAAAATGCATCACGACTCGTTTAGACAATAGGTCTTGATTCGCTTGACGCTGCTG | 643
